Assay results collected from several papers.
Lines come from different studies, so protocols differ. ± gives the spread as reported. Values after ≈ are worked out from the molar mass of the structure shown.

SMILES	assay	test system	conditions	how to read	measurement	value
CC(C)C[C@@H](NC(=O)[C@H](NC(=O)[C@H]1CCCN1)[C@H](C)O)C(=O)N[C@H](Cc1c[nH]cn1)C(=O)N[C@@H](C(=O)N[C@H](Cc1c[nH]cn1)C(=O)N[C@H](CC(N)=O)C(=O)N[C@H](CCCNC(=N)N)C(=O)N[C@H](CCCNC(=N)N)C(=O)N[C@H](CCCNC(=N)N)C(=O)N[C@H](CCCNC(=N)N)C(=O)N[C@H](CCCNC(=N)N)C(N)=O)[C@H](C)O		Beagle dog, CSF	intravenous, 3 mg/kg, single dose		MRT(0-inf)	39 ± 4 h
Cc1ccc(NCC(=O)Nc2ccc(F)c(Cl)c2)cc1S(=O)(=O)N1CCOCC1		water			kinetic solubility	160 µM (≈ 70.7 µg/mL)
CC(C)c1cnc(-c2cc(Cl)ccc2F)cc1Nc1ccncc1C(=O)NC(CO)CO		human, advanced solid tumour	oral, dose not given, phase I monotherapy		grade 3 ALT increase incidence	9.5%
CC[C@H](C)[C@H](NC(=O)[C@H](N)Cc1ccc(O)cc1)C(=O)N[C@H]1CSSC[C@@H](C(=O)N(C)[C@H](C(N)=O)[C@@H](C)CC)NC(=O)[C@H](CCCNC(=N)N)NC(=O)[C@H](Cc2c[nH]cn2)NC(=O)[C@H](C)NC(=O)CN(C)C(=O)[C@H](Cc2c[nH]c3ccccc23)NC(=O)[C@H](CC(=O)O)NC(=O)[C@H](CCC(N)=O)NC(=O)[C@H](Cc2cn(C)c3ccccc23)NC(=O)[C@H](C(C)C)NC1=O	UPLC-ESI-MS	human plasma	3.58 µg/mL, 24 h, 4 °C, autosampler after SPE		recovery	99.4 ± 0.2%
O=C(Nc1ccc(-c2noc(C3CC3)n2)c(Cl)c1)c1cccs1	metabolic stability	human, liver microsomes			half-life	29.4 min
COC(=O)C1OC(Oc2c(-c3ccccc3)oc3cc(O)c(O)c(O)c3c2=O)C(O)C(O)C1O (centres unmarked)		BALB/c mouse, thymus	1 mg/kg		organ weight	0.25 ± 0.03 g
NC[C@@H](C(=O)Nc1ccc(-c2cn[nH]c2)cc1)c1ccccc1	OECD 405 test	New Zealand White rabbits	topical, 0.1 %, day 1, 1 h	direction not given	total ocular irritation score	1
C[Si]1(C[C@@H](CN)CC(=O)O)CCCC1	neuromuscular coordination	Wistar rat male	oral, 300 mg/kg, 3 h		performance time	180 s
CC(=O)OC[C@H]1O[C@@H](Sc2sc(C(=O)c3ccc(Br)cc3)c(N)c2-c2nc3ccccc3s2)[C@H](OC(C)=O)[C@@H](OC(C)=O)[C@@H]1OC(C)=O		DMEM	72 h		maximum nontoxic concentration	100 µg/mL
CC(=O)N[C@@H](CCC(=O)O)C(=O)N[C@@H](CO)C(=O)NCC(=O)N[C@@H](CO)C(=O)NCC(=O)N[C@@H](CCC(N)=O)C(=O)N[C@@H](CCC(N)=O)C(=O)N[C@@H](CCCCN)C(=O)N[C@@H](Cc1ccccc1)C(=O)N[C@@H](CCC(N)=O)C(=O)N[C@@H](Cc1ccccc1)C(=O)N[C@@H](CCC(N)=O)C(=O)N[C@@H](Cc1ccccc1)C(=O)N[C@@H](CCC(=O)O)C(=O)N[C@@H](CCC(N)=O)C(=O)N[C@@H](CCC(N)=O)C(N)=O	negative-stain TEM	1× PBS	0.2 mM		nanofiber width	11.6 ± 1.58 nm
COc1cc2c(cc1OC)CN(CCCCn1ccc3cc(OCC[18F])ccc31)C2		male ICR mice	intravenous, 30 min post-injection		heart uptake	2.36 ± 0.26 %ID/g
COc1cc(NC(C)=O)c2c(c1O)-c1c(OC)c(OC)cc3c1C(C2)N(C)CC3 (centres unmarked)		rat brain homogenate	5 µg/mL, 4 h, room temperature, short-term storage		remaining compound	96.3 ± 3.3%
C=C(c1ccc(C(=O)O)c(F)c1)c1cc2c(cc1C)C(C)(C)C=CC2(C)C		Sprague-Dawley rat, male, plasma	oral, 100 mg/kg, 6 h, sesame oil vehicle		LDL level	9 ± 3.6 mg/dL
COc1cc2ncnc(Oc3ccc4c(C(N)=O)c(C)oc4c3)c2cc1OC	item: AUC0-t	human, severe renal impairment	oral	relative to: normal renal function	decrease in exposure	~55%
Cc1ccc(OCC(=O)N(Cc2cccs2)c2ccn[nH]2)cc1		Sprague-Dawley rat, liver microsomes	10 µM, 60 min, together with: NADPH		remaining compound	~1%
C=C(C)C(=O)Nc1ccc(-c2c(-c3ccc(Oc4nccc(C)n4)cc3)c3c(N)ncnc3n2C)cc1	metabolic stability	dog, hepatocytes			hepatocyte CLint	28 µL/min/10⁶ cells
Cc1[nH]nc2c1N=C(c1ccccc1Cl)c1cnc(NCC(=O)O)cc1N2		human, feces and urine	oral, 10 mg	relative to: dose	excretion in feces and urine	1.6%
Cc1noc(C)c1Cn1cc(N2C(=O)CN(Cc3cccc(OS(=O)(=O)O)c3)C2=O)cn1		rat Sprague-Dawley male, plasma	oral, 100 mg/kg of parent drug		AUC(0-last)	72500 ng·h/mL
CCOP(=O)(CC(=O)Nc1ccc(S(=O)(=O)N(CC(N)=O)c2ccc(N(CC(N)=O)S(=O)(=O)c3ccc(OC)cc3)c3ccccc23)cc1)OCC	HE staining	APP/PS1 mice, heart, liver, lung, spleen, kidney	40 mg/kg, 2 months		organ histopathology	no effect
COc1ccc2cc(-c3ccc(-c4ccc(C)cn4)nc3)oc2c1		toluene	together with: quinine bisulfate reference		fluorescence quantum yield	0.71
COc1cc(OC)cc(C2=C3C(C)=C(I)C(/C=C/c4c[nH]c5ccc([N+](=O)[O-])cc45)=[N+]3[B-](F)(F)n3c(/C=C/c4c[nH]c5ccc([N+](=O)[O-])cc45)c(I)c(C)c32)c1		DMSO			absorption maximum	712 nm
CN1CCN(c2cc(-c3ccccc3CO)c(N(C)C(=O)C(C)(C)c3cc(C(F)(F)F)cc(C(F)(F)F)c3)cn2)CC1		human, plasma	dose not given		duration of quantifiable plasma levels	10 days
C[Si](C)(C[C@@H](CN)CC(=O)O)C1CC1	neuromuscular coordination	Wistar rat male	oral, 30 mg/kg, 2 h		performance time	168 s
CC(C)CCCC(C)CCCC(C)CCOC1OC[C@@H](O)[C@H](O)[C@H]1O (some centres unmarked)	drop shape tensiometry	water	room temperature		surface tension at CMC	28.6 mN/m

SMILES	assay	test system	conditions	how to read	measurement	value
O=c1nc(NO)ccn1[C@@H]1O[C@H](CO)[C@@H](O)[C@H]1O	RT-PCR, item: CYP3A1	rat, arthritis model, liver	oral, 80 mg/kg twice daily, 5 days	relative to: untreated arthritic rats	mRNA level	0.4 fold
CC1=CC(c2ccccc2)=[O+][Pt-2]([NH3+])([NH3+])[O]1.O=[N+]([O-])[O-] (centres unmarked)	1H NMR	water	up to 25 d, 37 °C		chemical stability	no effect
N=C(N)NCCC[C@@H]1NC(=O)[C@H](Cc2c[nH]c3ccccc23)NC(=O)[C@@H](CC2CCCCC2)NC(=O)[C@@H]2CCCN2C(=O)[C@@H](NC(=O)CCc2ccccc2)CCCNC1=O		C57BL/6J mice, brain	oral, 1 mg/kg		Tmax	20.7 min
COCC1CN(C2CCN(c3cc(OC)c(Nc4ncc(Br)c(Nc5ccc6c(c5P(C)(C)=O)OCCO6)n4)cc3C)CC2)C1		human patients	oral, dose not given		grade ≥3 treatment-related hypertension	3.7%
COc1cc(-c2nc3ccccc3s2)cc(CN2Cc3cccc(n3)CN(CC(=O)O)Cc3cccc(n3)C2)c1O	UV-vis spectrophotometric titration, item: H4L3+/H3L2+ equilibrium	MeOH/water with NaCl	50 µM, room temperature, NaCl 0.1 M, MeOH ≤20% v/v		pKa1	4.57
CCCC(CCC)NC(=O)c1ccc(O)c(O)c1		male Sprague-Dawley rats, plasma	oral, 200 mg/kg of parent drug	relative to: 200 over 20 mg/kg dose	AUC(0-last) ratio	73.7
CCc1cc(Nc2nc(-c3ccc(-n4cnc(C)c4)c(F)c3)cs2)c(C)cc1C		humans	oral, 25 to 300 mg, single dose, all cohorts		tolerability	not toxic
CC/C=C\C/C=C\C/C=C\C/C=C\C/C=C\CCCCOC(CC)C(=O)O (centres unmarked)	[14C] label	male Wistar rat, muscle	oral, 100 mg/kg, 1 day		radioactivity concentration	1.2 µg equiv/g
COCCOCCOCCOCCOCCOCCOCCNC(=O)CCC1(CCC(=O)NCCOCCOCCOCCOCCOCCOCCOC)c2ccccc2-c2ccc(-c3sc(-c4c5c(c(-c6sc(-c7ccc8c(c7)C(CCC(=O)NCCOCCOCCOCCOCCOCCOCCOC)(CCC(=O)NCCOCCOCCOCCOCCOCCOCCOC)c7ccccc7-8)c7c6OCCO7)c6nsnc46)N=S=N5)c4c3OCCO4)cc21		KM mice, female, faeces	intravenous, dose not given, 24 h	relative to: dose	faecal excretion	~47%
CC(C)CCN(Cc1ccc(F)cc1)c1nc(C#N)nc(N2CCOCC2)n1		CD-1 mouse female	intraperitoneal, 10 mg/kg	relative to: brain over plasma	brain/plasma AUC ratio	0.61
CN1CCC[C@]1(C)/C=C/S(=O)(=O)NC(=O)Nc1c2c(cc3c1CCC3)CCC2		human	oral, up to 400 mg single dose		tolerability	not toxic
C=C(c1ncc(C(=O)O)cn1)c1cc2c(cc1C)C(C)(C)CCC2(C)C		Sprague-Dawley rat, male, plasma	oral, 100 mg/kg, 3 h, sesame oil vehicle		LDL level	19 ± 8.1 mg/dL
Cc1ccccc1/N=N/c1ccc(/N=N/c2c(O)ccc3ccccc23)c(C)c1		Sprague-Dawley rats both sexes, whole blood	oral, 50 mg/kg		MRT(0-inf)	3.41 h
O=C(C1CC1)N1CC=C(c2cc3c(Nc4cc5ncsc5cc4F)ncnc3s2)CC1	metabolic stability	human, liver microsomes			half-life	> 120 min
Nc1nc2c(ncn2CC(=O)N[C@@H](Cc2ccccc2)C(=O)N[C@@H](Cc2ccccc2)C(=O)O)c(=O)[nH]1	TEM	hydrogel in water	2.0 wt%, pH 5.0 or 7.4, together with: alkaline phosphatase at pH 7.4		nanofiber width	15 nm
CC(C)C[C@H](NC(=O)[C@H](Cc1ccccc1)NC(=O)[C@H](CCC(=O)O)NC(=O)[C@H](CCC(=O)O)NC(=O)[C@H](C)NC(=O)[C@H](Cc1ccccc1)NC(=O)[C@H](CCC(=O)O)NC(=O)[C@H](CCCNC(=N)N)NC(=O)[C@H](Cc1ccccc1)NC(=O)[C@H](C)NC(=O)[C@H](C)NC(=O)[C@H](Cc1ccccc1)NC(=O)[C@H](Cc1c[nH]c2ccccc12)NC(=O)[C@H](CCC(=O)O)NC(=O)[C@H](CCC(=O)O)NC(=O)[C@H](CC(C)C)NC(=O)[C@H](CCCCN)NC(=O)[C@H](CO)NC(=O)[C@H](CCCNC(=N)N)NC(=O)[C@@H](NC(=O)[C@@H](N)CCC(=O)O)C(C)C)C(=O)N[C@@H](C)C(=O)N[C@@H](CCCNC(=N)N)C(=O)N[C@@H](CC(C)C)C(=O)N[C@@H](CCCCN)C(=O)N[C@@H](CO)C(=O)O	circular dichroism	phosphate buffer	pH 7.4, concentration range tested		α-helical content	56.9 ± 0.8%
CCC1CNC(CC)CN(C(C(=O)[O-])c2ccc(C(=O)[O-])cc2)C(CC)CN(CC(=O)[O-])C(CC)CN1.[Mn+2] (centres unmarked)	ICP-MS	BALB/c mice, kidney	intravenous, 0.05 mmol/kg, 5 min		Mn content	9.61 µg/g
CCCC[C@H](NC(=O)CNC(=O)CNC(=O)CN1CCN(CC(=O)O)CCN(CC(=O)O)CC1)C(=O)N[C@H]1CC(=O)NCCCC[C@@H](C(N)=O)NC(=O)[C@H](Cc2c[nH]c3ccccc23)NC(=O)[C@H](CCCNC(=N)N)NC(=O)[C@@H](Cc2ccccc2)NC(=O)[C@H](Cc2c[nH]cn2)NC1=O [copper-64 labelled]		female C57 mouse, B16/F1 melanoma, bone	intravenous, 0.037 MBq, 4 h		tissue uptake	0.19 ± 0.06 %ID/g
CCCCN1C(=O)c2cccc3c(NCCCCCCCCCCN4CCOCC4)ccc(c23)C1=O		water	pH 6	relative to: fluorescein/0.1 N NaOH	fluorescence quantum yield	0.08
C/C=C/CNC(=N)NCCCCCCCCN1CCCc2ccc(F)cc2COc2ccccc2CNC(=N)NC1=O	PAMPA	egg phosphatidylcholine in dodecane	500 µM, 5 h, pH 7.4, room temperature		membrane retention	50.6%
O=C(O)[C@@H]1C[C@@H](O)CN1C(=O)[C@@H]1CCCN1	potentiometric titration	water	40 °C, 0.15 mol/dm3 NaCl		pKa1	< 2
Cn1c(=O)oc2ccc(-c3ccc(CC(C#N)NC(=O)C4CNCCCO4)c(F)c3)cc21 (centres unmarked)		human	oral, 40 mg once daily, TEAE, multiple ascending dose		triglycerides increased incidence	33.3%
CC(C)[C@H](NC(=O)CNC(=O)[C@H](CCC(N)=O)NC(=O)[C@H](C)N)C(=O)O		human	across phase I studies		half-life	< 60 min

Excerpt of the above:
SMILES	assay	test system	conditions	how to read	measurement	value
CC1=CC(c2ccccc2)=[O+][Pt-2]([NH3+])([NH3+])[O]1.O=[N+]([O-])[O-] (centres unmarked)	1H NMR	water	up to 25 d, 37 °C		chemical stability	no effect
N=C(N)NCCC[C@@H]1NC(=O)[C@H](Cc2c[nH]c3ccccc23)NC(=O)[C@@H](CC2CCCCC2)NC(=O)[C@@H]2CCCN2C(=O)[C@@H](NC(=O)CCc2ccccc2)CCCNC1=O		C57BL/6J mice, brain	oral, 1 mg/kg		Tmax	20.7 min
COCC1CN(C2CCN(c3cc(OC)c(Nc4ncc(Br)c(Nc5ccc6c(c5P(C)(C)=O)OCCO6)n4)cc3C)CC2)C1		human patients	oral, dose not given		grade ≥3 treatment-related hypertension	3.7%
